# Measurements of several laboratories.
# Each line is one published result; not all experiments were run side by side. “And” joins repeats or separate records; there may be more than shown. ± gives the spread as reported.
Structure (SMILES),target or system,assay,test system,conditions,how to read,measurement,value
COc1cc2nccc(Oc3ccc(NC(=O)NC4CC4)c(Cl)c3)c2cc1C(N)=O,,item: Tie-2,"human, serum","PK/PD model, bootstrap median",,Hill coefficient,0.292
CSCCNc1nc(SCCC(F)(F)F)nc2c1ncn2[C@@H]1O[C@H](COP(=O)(O)OP(=O)(O)C(Cl)(Cl)P(=O)(O)O)[C@@H](O)[C@H]1O,,"ADP-induced platelet aggregation, LTA, >46% aggregation","human patients, platelet-rich plasma","dose not given, 4 to 6 h, together with: ADP 5 µM",,patients with high reactivity,71.1%
CCOC(=O)c1cc(Cl)cc(NC(=O)c2sc(Cl)cc2S(=O)(=O)N(C)c2ccc(OCC)c(OC)c2)c1,,,"mice, female, C57BL/6, wild-type, liver","oral gavage, dose not given, 7 days",,Abca1 mRNA level,increased
CN(C)C(=O)Oc1cccc([N+](C)(C)C)c1,,neuromuscular block reversal,rat,"dose not given, 2 (unit not given), together with: cisatracurium",relative to: T1 twitch,train-of-four ratio,4.4
N#Cc1ccc2c(-c3ccncc3)c(-c3ccc(F)cc3)nn2c1,,"kinase binding, competitor, MIB/MS competition, item: YCK2",Candida albicans cell lysate,10 µM,relative to: DMSO,log2 fold change,-4.72
O=C(COc1ccc(Cl)cc1)NC12CC(c3nnc([C@H]4C[C@@H](OC(F)(F)F)C4)o3)(C1)C2,,,"healthy human, PBMC","oral, 800 mg single dose, day 1, 4 h post-dose, median, together with: sodium arsenite ex vivo",relative to: baseline,CHAC1 mRNA change,-69.3%
C=Cc1c(C)c2cc3nc(c(CC(=O)O)c4[nH]c(cc5nc(cc1[nH]2)C(C)=C5CC)c(C)c4C(=O)O)[C@@H](CCC(=O)O)[C@@H]3C,,flow cytometry,"mouse, 4T1 tumour-bearing","dose not given, 1 h",,M1 cells,1.97% and 1.51% and 1.28%
O=[N+]([O-])c1cc2c3ccccc3ccc2c2ccccc12,,"ELISA, item: inflammatory cytokines","rats, plasma","intramammary injection, dose not given, 24 h",,plasma cytokine levels,no effect
C[C@]12CC[C@@H]3c4ccc(O)cc4CC[C@H]3[C@@H]1CC[C@@H]2O,,"RT-qPCR, item: CO",Arabidopsis thaliana ING1:FLAG seedlings,"20 µM, 4 h after treatment, replicate rep1, unit not given",relative to: TUB2,mRNA level,0.0492
c1ccc(-c2n[nH]cc2-c2ccnc3ccccc23)nc1,,"kinase binding, competitor, MIB/MS competition, item: CKA2",Candida albicans cell lysate,10 µM,relative to: DMSO,log2 fold change,1.43
CC1(C)CCC2=C(O1)c1ccccc1C(=O)C2=O,Toxoplasma gondii,parasite growth,"HFF, bradyzoite, alkaline-induced",,,EC50,11.9 µM
CC(C)[C@@H](CS(=O)(=O)C(C)C)N1C(=O)[C@@](C)(CC(=O)O)C[C@H](c2cccc(Cl)c2)[C@H]1c1ccc(Cl)cc1,,,"mouse, subcutaneous PDX","25 mg/kg, dosed until moribund",,median time to endpoint,70 days
Cc1noc(C)c1-c1cc(C(O)(c2ccccn2)c2ccccn2)c2nc(C3CC3)[nH]c2c1,,item: HEXIM1 expression,human patients,"dose not given, day 8, 192 h",,maximum induction,41.4%
C[C@H]1C[C@H]2CSC(N)=N[C@@]2(c2nc(NC(=O)c3ccc(OC(F)F)cn3)cs2)CO1,,item: total Aβ,"healthy adults, plasma","160 mg single dose, 8 h post-dose",relative to: placebo,percent change from baseline,-57.4%
N[C@@H](CC(=O)N1CCn2c(nnc2C(F)(F)F)C1)Cc1cc(F)c(F)cc1F,,,ZDF rat,"10 mg/kg/day, 6 weeks",,HbA1c at end of treatment,8.5 ± 0.16%
O=C(OC(C(F)(F)F)C(F)(F)F)N1CCN(Cc2cccc(Oc3ccccc3)c2)CC1,,PET,"rhesus monkey, striatum","intravenous, 0.01 mg/kg, pretreatment blocking, together with: [18F]T-401",,tracer distribution volume,10.6 mL/cm3
O=C(O)CNC(=O)Cc1ccccc1,,,"ventricular cardiomyocytes, C57BL/6 mouse","dose not given, 0.128 s",,sarcomere length,1.7 µm
Cc1cc(Nc2cc3ncccc3c(N[C@@H]3C[C@H]4CC[C@@H](C3)N4CCC#N)n2)n[nH]1,,,moderate-severe ulcerative colitis patients,"20 mg, day 28, Modified Mayo","relative to: baseline, direction not given",change in endoscopic subscore,-0.4
C=CCn1c(=O)c2cnc(Nc3ccc(N4CCN(C)CC4)cc3)nc2n1-c1ccc2c(n1)[C@@](O)(CC)CC2,,,"Rh30 xenograft, BALB/c nude mice","oral, 80 mg/kg once daily x 21, day 18",,tumour volume difference,1300 ± 54.3 mm3
COC[C@@H](c1ccc(C(F)(F)F)cc1)N1CCN(C2(C)CCN(C(=O)c3c(C)ncnc3C)CC2)C[C@@H]1C,,,"HIV-1 patients, plasma","10 mg, week 2",relative to: baseline,change in HIV-1 RNA,-1.3 log10 copies/mL
COc1ccc(-c2cncc(N[C@@H](C)c3cccc(NC(=O)c4cncc(C)c4)c3)n2)cc1OC,,item: rno-miR-224-5p,"rat SU5416/hypoxia model, lung",dose not given,relative to: SU5416/hypoxia vehicle,fold change,0.704
CC(C)[C@H](NC(=O)[C@H](Cc1ccc(O)cc1)NC(=O)[C@H](Cc1ccc(O)cc1)NC(=O)[C@@H]1CCCN1C(=O)[C@H](CCC(=O)O)NC(=O)[C@H](CCC(=O)O)NC(=O)[C@H](Cc1c[nH]c2ccccc12)NC(=O)[C@@H]1CCCN1C(=O)[C@@H](NC(=O)[C@H](CCC(N)=O)NC(=O)c1ccc2c(c1)C(=O)OC21c2ccc(O)cc2Oc2cc(O)ccc21)C(C)C)C(=O)N[C@H](C(=O)N[C@@H](CCCCN)C(=O)N[C@@H](CCCCN)C(=O)N[C@@H](CO)C(=O)N[C@@H](CO)C(=O)NCC(=O)NCC(N)=O)C(C)C,,added benefit of NERVE,"human head and neck surgery, nerves","500 mg, very much added benefit",relative to: white light,share of responses,0%
CC(C)n1c(C2CCNCC2)nc2c([N+](=O)[O-])c(Br)c(Br)cc21,,,"patients with AML, bone marrow",all dose levels,relative to: baseline,maximum blast change,321%
O=C1Nc2cc3[nH]nc(-c4ccncc4)c3cc2CN1Cc1ccccc1,,RECIST v1.1,"human, relapsed or refractory advanced solid tumours","intravenous, 9.6 mg/kg, pooled schedules",,"complete response, best response",0%
CC1(C)CCC(c2ccc(Cl)cc2)=C(CN2CCN(c3ccc(C(=O)NS(=O)(=O)c4ccc(N[C@H](CCN5CCOCC5)CSc5ccccc5)c(S(=O)(=O)C(F)(F)F)c4)cc3)CC2)C1,,cell killing,"canine lymph node CD21+ B cells, dog 33",24 h,,EC50,0.228 µM
CCO[C@H]1CCN(Cc2c(OC)cc(C)c3[nH]ccc23)[C@H](c2ccc(C(=O)O)cc2)C1,,,"PNH patients, blood","oral, 50 mg then 200 mg, week 8, mean percent change",relative to: baseline,PNH RBC clone size,396%
CCN(Cc1nc2c(N)nc3cc(-c4cc[nH]n4)ccc3c2[nH]1)C(C)=O,,"immunohistochemistry, item: CD163+ TAMs","patients with advanced solid tumours, non-injected tumour lesions","dose not given, monotherapy",relative to: baseline,mean fold change,1.1
CC(C)[C@H](C(=O)Nc1ccc(C(=O)NO)cc1)c1ccccc1,,volumetric MRI,"human, right C1 intradural meningioma","dose not given, day 64",relative to: baseline,tumour volume change,26%
Cc1ccc(C(=O)N(CCCN)[C@@H](c2oc3cc(Cl)ccc3c(=O)c2Cc2ccccc2)C(C)C)cc1,Toxoplasma gondii,parasite growth,"HFF, bradyzoite, alkaline-induced",,,EC90,8.94 µM
CN[C@@H]1COc2c(S(=O)(=O)NC(=O)Nc3c4c(cc5c3CCC5)CCC4)cnn2C1,,item: IL-1β,"human participants, whole blood ex vivo","450 mg single dose, 8 h, together with: LPS/ATP",relative to: baseline,inhibition,99%
C[C@H](Oc1ccc(Br)cc1-c1ccon1)C(=O)O,,muscle velocity recovery cycles,"human, tibialis anterior muscle","400 mg once daily, multiple doses, multiple ascending dose",relative to: placebo,latency,0.07 ms
Cn1cc(Nc2nccc(-c3ccc4c(c3)CN(C3COC3)CC[C@H]4NC(=O)c3cn(C(C)(C)C)nn3)n2)cn1,,item: glycolysis I,"splenic B cells, mice","30 mg/kg, IgD-activated in vivo","relative to: vehicle, direction not given",pathway activation z-score,-1.34
COc1cc(Nc2ncc3c(n2)-c2ccc(Cl)cc2C(c2c(F)cccc2OC)=NC3)ccc1C(=O)O,,,"mouse, NB-1771 neuroblastoma xenograft","oral, 10.4 mg/kg, day 21",relative to: vehicle,relative tumour volume T/C,0.46
COc1ccccc1[C@H](Cn1c(=O)n(C(C)(C)C(=O)O)c(=O)c2c(C)c(-c3ncco3)sc21)OC1CCOCC1,,,human,"20 mg, post-treatment",,blood Glucose level,93.9 ± 8.37 mg/dL
N#Cc1ccn2c(-c3ccncc3)c(-c3ccc(F)cc3)nc2c1,,"kinase binding, competitor, MIB/MS competition, item: RIM11",Candida albicans cell lysate,10 µM,relative to: DMSO,log2 fold change,0.0166
OC(CCN1CCCCC1)(c1ccccc1)C1CC2C=CC1C2 (stereo not shown),,resting-state EEG,healthy elderly humans,"oral, 4 mg, eyes open, LS mean",relative to: baseline,change in EEG Alpha2-power Fz-Cz,49.7%
CN(C)C(=O)c1cc2cnc(Nc3ccc(N4CCNCC4)cn3)nc2n1C1CCCC1,,"RNA-seq GSEA, item: HALLMARK_APICAL_SURFACE",MB002 tumour,"concentration not given, in vivo","relative to: vehicle, direction not given",normalized enrichment score,1.15
Cc1n[nH]c2ccc(-c3cc(OC[C@@H](N)Cc4ccccc4)cnc3-c3ccoc3)cc12,,"kinase binding, competitor, MIB/MS competition, item: PKH2",Candida albicans cell lysate,10 µM,relative to: DMSO,log2 fold change,-0.756
CCCCCN1C[C@H](O)[C@@H](O)[C@H](O)[C@@H]1CO,,mRNA sequencing,"mouse Hexb-/-, hippocampus",30 mg/kg/day,relative to: untreated Hexb-/- mice,number of significantly changed genes,1 genes
Cc1nn(-c2nc3c(F)cc(F)cc3s2)c(O)c1C(c1ccc(C(F)(F)F)cc1)c1c(C)nn(-c2nc3c(F)cc(F)cc3s2)c1O,,,"mouse, cerulein-induced acute pancreatitis",25 mg/kg,,pancreas weight,0.203 g and 0.133 g and 0.164 g and 0.216 g and 0.184 g
CCO,,,supine,"concentration not given, 0 to 4 h",relative to: baseline,maximum change in diastolic blood pressure,-13.7 ± 5.5 mmHg
CC#Cc1cncc(-c2ccc3c(c2)[C@@]2(N=C(C)C(N)=N2)[C@]2(CC[C@H](OC)CC2)C3)c1,,item: Aβ40,"Dunkin-Hartley guinea pigs, CSF","oral, dose not given, 8 h",,maximum reduction,88%
CC(C)NCC(O)c1ccc(O)c(O)c1 (stereo not shown),,,"ventricular cardiomyocytes, C57BL/6 mouse","dose not given, 0.48 s",,sarcomere length,1.58 µm
COc1ccc(C2=N[C@@H](c3ccc(Cl)cc3)[C@@H](c3ccc(Cl)cc3)N2C(=O)N2CCNC(=O)C2)c(OC(C)C)c1,,histology,"Dmd C3333Y mice, triceps",dose not given,,necrotic area,11.6% and 9.7% and 11.2% and 10.8% and 12.1%
Cc1ccc([C@@H]2O[C@H](CO)[C@@H](O)[C@H](O)[C@H]2O)cc1Cc1ccc(-c2ccc(F)cc2)s1,,,Japanese type 2 diabetes patients,"25 mg, day 1",relative to: day 0,"change, mean 24 h, plasma glucose",-25 mg/dL
C[C@@H](O)CCOC(=O)C[C@@H](C)O,,item: Pro,"human, plasma","60 min, log2-transformed values",,metabolite level,7.68 ± 0.41 µmol/L
NS(=O)(=O)OC[C@@H]1C[C@@H](n2ccc3c(N[C@H]4CCc5ccccc54)ncnc32)C[C@@H]1O,,"item: NAE-regulated genes (NQO1, SRXN1, TXNRD1, GCLM, GSR, SLC7A11, ATF3)","PBMCs, human patients",dose not given,,gene expression,increased
N#Cc1ccc2c(c1)[C@H]1CCCN(C(=O)c3ccc4[nH]cnc4c3)[C@H]1C2,,,"human, Phase II trial","240 mg once daily, day 28, adjusted mean",relative to: baseline,HOMA-IR change,1.2 mmol/L × mU/L
NC(=O)c1cnc2[nH]ccc2c1N[C@@H]1[C@@H]2CC3C[C@H]1C[C@@](O)(C3)C2,,"flow cytometry, item: CD4+ naive T cells","Japanese healthy subjects, peripheral blood","oral, 30 mg twice daily, day 4",,change from baseline,-0.65%

# For quick reference, copied from above:
Structure (SMILES),target or system,assay,test system,conditions,how to read,measurement,value
CN[C@@H]1COc2c(S(=O)(=O)NC(=O)Nc3c4c(cc5c3CCC5)CCC4)cnn2C1,,item: IL-1β,"human participants, whole blood ex vivo","450 mg single dose, 8 h, together with: LPS/ATP",relative to: baseline,inhibition,99%
C[C@H](Oc1ccc(Br)cc1-c1ccon1)C(=O)O,,muscle velocity recovery cycles,"human, tibialis anterior muscle","400 mg once daily, multiple doses, multiple ascending dose",relative to: placebo,latency,0.07 ms
Cn1cc(Nc2nccc(-c3ccc4c(c3)CN(C3COC3)CC[C@H]4NC(=O)c3cn(C(C)(C)C)nn3)n2)cn1,,item: glycolysis I,"splenic B cells, mice","30 mg/kg, IgD-activated in vivo","relative to: vehicle, direction not given",pathway activation z-score,-1.34
COc1cc(Nc2ncc3c(n2)-c2ccc(Cl)cc2C(c2c(F)cccc2OC)=NC3)ccc1C(=O)O,,,"mouse, NB-1771 neuroblastoma xenograft","oral, 10.4 mg/kg, day 21",relative to: vehicle,relative tumour volume T/C,0.46
